Measurements gathered from unrelated publications.
Each numbered part is a random draw from the data of one study; scales do not carry over between parts. Substitutions count along the parent as printed.

Sample 1
Target: Sal-like protein 4, full length isoform A (SALL4, Homo sapiens, UniProt Q9UJQ4, residues 1-1053)
Sequence of UniProt Q9UJQ4 (whole entry, looked up): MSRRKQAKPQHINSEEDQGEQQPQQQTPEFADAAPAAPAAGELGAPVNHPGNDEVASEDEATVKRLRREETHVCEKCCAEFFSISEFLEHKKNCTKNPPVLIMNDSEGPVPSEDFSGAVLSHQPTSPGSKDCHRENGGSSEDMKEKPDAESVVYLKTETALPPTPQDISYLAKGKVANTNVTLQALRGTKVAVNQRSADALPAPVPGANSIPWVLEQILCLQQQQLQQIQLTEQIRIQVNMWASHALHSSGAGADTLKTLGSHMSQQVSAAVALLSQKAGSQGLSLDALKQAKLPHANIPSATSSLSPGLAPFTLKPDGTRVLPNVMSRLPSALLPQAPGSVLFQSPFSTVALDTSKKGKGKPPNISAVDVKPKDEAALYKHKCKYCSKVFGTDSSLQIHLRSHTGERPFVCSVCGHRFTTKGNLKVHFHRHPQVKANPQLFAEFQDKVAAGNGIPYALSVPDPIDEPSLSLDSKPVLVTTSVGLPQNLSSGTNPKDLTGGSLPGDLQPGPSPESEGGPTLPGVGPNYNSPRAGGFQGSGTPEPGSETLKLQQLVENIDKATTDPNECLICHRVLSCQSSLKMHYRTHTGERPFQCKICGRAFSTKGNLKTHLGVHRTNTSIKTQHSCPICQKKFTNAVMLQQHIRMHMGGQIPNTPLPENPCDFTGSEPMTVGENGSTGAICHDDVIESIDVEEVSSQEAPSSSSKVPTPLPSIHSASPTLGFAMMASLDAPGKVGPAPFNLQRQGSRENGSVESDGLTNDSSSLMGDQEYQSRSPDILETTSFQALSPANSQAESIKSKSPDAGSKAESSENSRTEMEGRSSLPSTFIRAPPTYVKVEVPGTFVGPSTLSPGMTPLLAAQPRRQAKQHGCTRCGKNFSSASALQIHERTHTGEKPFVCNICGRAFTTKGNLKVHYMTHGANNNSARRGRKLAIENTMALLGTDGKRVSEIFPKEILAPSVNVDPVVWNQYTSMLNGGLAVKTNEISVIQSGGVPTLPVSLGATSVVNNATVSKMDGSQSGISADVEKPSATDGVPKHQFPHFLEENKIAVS
Technique: universal PBM
Form: double-stranded DNA, one strand shown
Matrix: in vitro
Concentration: 600 nM
Setting: 8-mer, flanks averaged, mean of replicates
Direction: higher = stronger binding
Strand	E-score
ACTGGGGA	-0.358
CGACTAGC	-0.111
CCCGAGGG	-0.335
GCAGCAGC	-0.214
CGCTATGA	0.0574
CACTCAAG	-0.145
CTTTGACA	0.107
ACATGCAT	0.119
AGTTAAAA	0.284

Sample 2
Target: CCNA1, cyclin fold, Cln2 fusion (human)
Technique: yeast growth competition, sequencing
Matrix: yeast
Setting: weak parent motif
Baseline: not given
Direction: higher = stronger binding
Starting sequence: PKN2 docking peptide (human); VSAVQKLDFSDTM; partner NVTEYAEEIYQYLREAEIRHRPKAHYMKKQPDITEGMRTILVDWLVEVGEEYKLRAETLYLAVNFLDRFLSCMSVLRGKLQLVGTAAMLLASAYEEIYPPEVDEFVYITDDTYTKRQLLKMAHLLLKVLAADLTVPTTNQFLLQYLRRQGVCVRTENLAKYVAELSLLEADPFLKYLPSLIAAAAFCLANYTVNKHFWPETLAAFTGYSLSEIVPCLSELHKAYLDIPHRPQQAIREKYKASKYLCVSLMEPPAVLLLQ
Substitution	normalised enrichment score
VSAVQKYDFSDTM [L7Y]	0.0806
VSAVQMLDFSDTM [K6M]	0.386
VSAVQKLNFSDTM [D8N]	-0.0194
VSAVQPLDFSDTM [K6P]	0.203
VSAVQKLDFSCTM [D11C]	0.334
VSAVQKLDFSDDM [T12D]	0.026
VSAVQKLDFSETM [D11E]	0.258
VSAVQKLDRSDTM [F9R]	0.674
VSAVQKLDFADTM [S10A]	0.232
VSAVQKLDFSDPM [T12P]	0.536
VSAVQKDDFSDTM [L7D]	0.259

Sample 3
Target: Fragile X messenger ribonucleoprotein 1, C-terminal low-complexity region (Fmr1, Mus musculus, UniProt P35922)
Technique: RNA Bind-n-Seq
Form: RNA
Matrix: in vitro
Concentration: 200 nM
Setting: whole 134-nt RNA, ends assumed
Added: 150 mM KCl
Baseline: input library
Direction: higher = stronger binding
Strand	log2 enrichment
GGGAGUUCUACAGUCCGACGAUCCCUGUGCUACACAUCGUAUGUACCGAAUCGGAAAAAAAGGAAAAAAAGGGGAAAAAAAGGGAAAGUAUUAUGUUACGCCGUUCGGAUCUGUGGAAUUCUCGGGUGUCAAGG	-1.05
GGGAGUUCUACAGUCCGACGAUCGUCCUGUGCUACACAUCGUAUGUACCGAAUCAAAGUGUGUGUGUGUGUGUGUGUGAAAAAAGUAUUAUGUUACGCCGUUCGGAUCUGCACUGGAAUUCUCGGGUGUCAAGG	0.274
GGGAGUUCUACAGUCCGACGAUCAAGUCCUGUGCUACACAUCGUAUGUACCGAAUCGGGGUUUGGGGUGGGGUUUGGGGAAAGUAUUAUGUUACGCCGUUCGGAUCUGCACUUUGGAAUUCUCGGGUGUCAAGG	0.857
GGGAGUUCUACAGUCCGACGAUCAAGUCCUGUGCUACACAUCGUAUGUACCGAAUCAAACCCCCAAACCCAAACCCAAAAAAGUAUUAUGUUACGCCGUUCGGAUCUGCACUUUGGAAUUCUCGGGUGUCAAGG	-0.399
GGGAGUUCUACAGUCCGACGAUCAGUCCUGUGCUACACAUCGUAUGUACCGAAUCGGUUUUUGGGUUUUUGGGUUUUUGGGAAAGUAUUAUGUUACGCCGUUCGGAUCUGCACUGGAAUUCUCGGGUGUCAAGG	-0.336
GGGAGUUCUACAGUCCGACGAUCACCAUGCAGGUGGGCAUCUUUGGGAAAAGGGGCAAGGGGGGGAUAGGGAGGGGGGUAACACUUUGGGAACAGGUGGUCCCAGGUCGUUUCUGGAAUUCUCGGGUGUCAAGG	0.889
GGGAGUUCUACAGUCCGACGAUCUCCUGUGCUACACAUCGUAUGUACCGAAUCGGUUUUUUGGGGUUUUUUGGGUUUUUUGGAAAGUAUUAUGUUACGCCGUUCGGAUCUGCAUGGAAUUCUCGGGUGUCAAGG	0.107
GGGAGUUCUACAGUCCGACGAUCGUCCUGUGCUACACAUCGUAUGUACCGAAUCGGGCCCCCGGCCCCCGGGGCCCCCGGGGAAAGUAUUAUGUUACGCCGUUCGGAUCUGCAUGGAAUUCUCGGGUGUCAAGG	-0.996

Other studies, line by line
Substance	target	test	system	conditions	how to read	measurement	value
PhoQ, residues 284 288 289 292 302 303 SVTLVV	PhoP, residues 12 14 15 18 19 IQSYL (Escherichia coli, UniProt P23836)	Sort-seq, refers to: YFP reporter	E. coli	PhoQ-PhoP variant library, added: 10 µM Mg2+	baseline: high Mg2+ state, higher = stronger signaling	fold induction	6.99

Excerpt of the above (sample 3):
Strand	log2 enrichment
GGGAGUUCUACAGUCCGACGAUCAAGUCCUGUGCUACACAUCGUAUGUACCGAAUCGGGGUUUGGGGUGGGGUUUGGGGAAAGUAUUAUGUUACGCCGUUCGGAUCUGCACUUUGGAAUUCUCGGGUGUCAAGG	0.857
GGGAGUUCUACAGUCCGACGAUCAGUCCUGUGCUACACAUCGUAUGUACCGAAUCGGUUUUUGGGUUUUUGGGUUUUUGGGAAAGUAUUAUGUUACGCCGUUCGGAUCUGCACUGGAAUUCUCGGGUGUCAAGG	-0.336
